Published values from different studies.
Lines come from different studies, so protocols differ.

CCCC[C@H](NC(=O)[C@H](CCCNC(=N)N)NC(=O)[C@H](Cc1c[nH]c2ccccc12)NC(=O)[C@H](CSSC[C@H](NC(=O)[C@@H]1CCCN1C(=O)[C@H](CC(N)=O)NC(=O)[C@@H](N)[C@@H](C)CC)C(=O)N[C@@H](Cc1c[nH]c2ccccc12)C(=O)N[C@@H](CCCNC(=N)N)C(=O)N[C@@H](CCCC)C(=O)N[C@@H](CCCNC(=N)N)C(=O)N[C@@H](Cc1ccc(O)cc1)C(N)=O)NC(=O)[C@@H]1CCCN1C(=O)[C@H](CCCCNC(=O)CN1CCN(CC(=O)O)CCN(CC(=O)O)CCN(CC(=O)O)CC1)NC(=O)[C@@H](N)[C@@H](C)CC)C(=O)N[C@@H](CCCNC(=N)N)C(=O)N[C@@H](Cc1ccc(O)cc1)C(N)=O [gallium-68 labelled]  serum protein binding (human serum): ~30%
CCCC[C@H](NC(=O)CNC(=O)CNC(=O)CN1CCN(CC(=O)O)CCN(CC(=O)O)CC1)C(=O)N[C@H]1CC(=O)NCCCC[C@@H](C(N)=O)NC(=O)[C@H](Cc2c[nH]c3ccccc23)NC(=O)[C@H](CCCNC(=N)N)NC(=O)[C@@H](Cc2ccccc2)NC(=O)[C@H](Cc2c[nH]cn2)NC1=O [copper-64 labelled]  serum stability (RP-HPLC; mouse serum; 2 h, 37 °C): stable
CC(C)[C@H](NC(=O)CNC(=O)[C@H](Cc1c[nH]c2ccccc12)NC(=O)[C@@H]1CCCN1C(=O)[C@H](CC(=O)O)NC(=O)[C@H](CCC(N)=O)NC(=O)[C@H](CCC(=O)O)NC(=O)[C@@H](N)Cc1ccc(O)cc1)C(=O)N[C@@H](CCCCN)C(=O)N[C@@H](Cc1c[nH]c2ccccc12)C(=O)N[C@@H](Cc1c[nH]c2ccccc12)C(=O)N[C@@H](Cc1ccc(O)cc1)C(=O)NCC(=O)NCC(=O)NCC(=O)N[C@@H](CO)C(=O)N[C@@H](CCCCN)C(=O)N[C@@H](CCCCN)C(=O)N[C@@H](CCCCNC(=O)CCCC[C@@H]1SC[C@@H]2NC(=O)N[C@@H]21)C(N)=O  serum stability time (MALDI-TOF MS; normal mouse serum; 37 °C, until peptide no longer detected): ≤ 4 h
CCCC[C@@H]1NC(=O)[C@@H](NC(=O)[C@H](CCC(=O)O)NC(=O)CNC(=O)CN2CCN(CC(=O)O)CCN(CC(=O)O)CCN(CC(=O)O)CC2)CCCCNC(=O)C[C@@H](C(N)=O)NC(=O)[C@H](C(C)C)NC(=O)[C@@H]2CCCN2C(=O)[C@H](CCCNC(=N)N)NC(=O)CNC(=O)[C@H](Cc2c[nH]c3ccccc23)NC(=O)[C@H](CCCNC(=N)N)NC(=O)[C@@H](Cc2ccccc2)NC(=O)[C@H](Cc2c[nH]cn2)NC(=O)[C@H](CCC(=O)O)NC1=O [gallium-67 labelled]  serum stability (RP-HPLC; mouse serum; 24 h, 37 °C): stable
CC(C)[C@H](NC(=O)[C@@H]1CCCN1C(=O)[C@H](CCCNC(=N)N)NC(=O)[C@H](CS)NC(=O)[C@H](Cc1c[nH]c2ccccc12)NC(=O)[C@H](CCCNC(=N)N)NC(=O)[C@@H](Cc1ccccc1)NC(=O)[C@H](Cc1c[nH]cn1)NC(=O)[C@H](CCC(=O)O)NC(=O)[C@H](CS)NC(=O)[C@H](CS)NC(=O)[C@@H]1CC(=O)N[C@@H](CCCNC(=N)N)C(=O)NCC(=O)N[C@@H](CC(=O)O)C(=O)N[C@H](Cc2ccc(O)cc2)C(=O)N1)C(N)=O [technetium-99m labelled]  serum stability (RP-HPLC; mouse serum; 24 h, 37 °C): stable
CCCC[C@H](NC(=O)[C@H](CCC(=O)O)NC(=O)CNC(=O)CN1CCN(CC(=O)O)CCN(CC(=O)O)CCN(CC(=O)O)CC1)C(=O)N[C@H]1CC(=O)NCCCC[C@@H](C(N)=O)NC(=O)[C@H](Cc2c[nH]c3ccccc23)NC(=O)[C@H](CCCNC(=N)N)NC(=O)[C@@H](Cc2ccccc2)NC(=O)[C@H](Cc2c[nH]cn2)NC1=O [indium-111 labelled]  serum stability (RP-HPLC; mouse serum; 24 h, 37 °C): stable
CC(C)[C@@H]1NC(=O)CNC(=O)[C@H](Cc2c[nH]c3ccccc23)NC(=O)[C@@H]2CCCN2C(=O)[C@H](CC(=O)O)NC(=O)[C@H](CCC(N)=O)NC(=O)[C@H](CCC(=O)O)NC(=O)[C@H](Cc2ccc(O)cc2)NC(=O)CNC(=O)[C@@H](N)CSSC[C@@H](C(=O)N[C@H](CCCCN)C(=O)N[C@H](CCCCN)C(=O)N[C@H](CCCCN)C(=O)N[C@@H](CCCCNC(=O)CCCC[C@@H]2SC[C@@H]3NC(=O)N[C@@H]32)C(N)=O)NC(=O)CNC(=O)[C@H](Cc2ccc(O)cc2)NC(=O)[C@H](Cc2c[nH]c3ccccc23)NC(=O)[C@H](Cc2ccc(O)cc2)NC(=O)[C@H](CCCNC(=N)N)NC1=O  serum stability time (MALDI-TOF MS; normal mouse serum; 37 °C, until peptide no longer detected): > 48 h
CCCC[C@H](NC(=O)CNC(=O)CNC(=O)CN1CCN(CC(=O)O)CCN(CC(=O)O)CCN(CC(=O)O)CC1)C(=O)N[C@H]1CC(=O)NCCCC[C@@H](C(N)=O)NC(=O)[C@H](Cc2c[nH]c3ccccc23)NC(=O)[C@H](CCCNC(=N)N)NC(=O)[C@@H](Cc2ccccc2)NC(=O)[C@H](Cc2c[nH]cn2)NC1=O [lead-203 labelled]  serum stability (radio-HPLC; mouse serum; 4 h, 37 °C): stable

For quick reference, copied from above:
CC(C)[C@H](NC(=O)CNC(=O)[C@H](Cc1c[nH]c2ccccc12)NC(=O)[C@@H]1CCCN1C(=O)[C@H](CC(=O)O)NC(=O)[C@H](CCC(N)=O)NC(=O)[C@H](CCC(=O)O)NC(=O)[C@@H](N)Cc1ccc(O)cc1)C(=O)N[C@@H](CCCCN)C(=O)N[C@@H](Cc1c[nH]c2ccccc12)C(=O)N[C@@H](Cc1c[nH]c2ccccc12)C(=O)N[C@@H](Cc1ccc(O)cc1)C(=O)NCC(=O)NCC(=O)NCC(=O)N[C@@H](CO)C(=O)N[C@@H](CCCCN)C(=O)N[C@@H](CCCCN)C(=O)N[C@@H](CCCCNC(=O)CCCC[C@@H]1SC[C@@H]2NC(=O)N[C@@H]21)C(N)=O  serum stability time (MALDI-TOF MS; normal mouse serum; 37 °C, until peptide no longer detected): ≤ 4 h
